Measured values pooled from the literature.
Protocols differ between the studies behind these lines. ± marks the error that the study gave.
Chain of UniProt Q16531 (whole entry, looked up): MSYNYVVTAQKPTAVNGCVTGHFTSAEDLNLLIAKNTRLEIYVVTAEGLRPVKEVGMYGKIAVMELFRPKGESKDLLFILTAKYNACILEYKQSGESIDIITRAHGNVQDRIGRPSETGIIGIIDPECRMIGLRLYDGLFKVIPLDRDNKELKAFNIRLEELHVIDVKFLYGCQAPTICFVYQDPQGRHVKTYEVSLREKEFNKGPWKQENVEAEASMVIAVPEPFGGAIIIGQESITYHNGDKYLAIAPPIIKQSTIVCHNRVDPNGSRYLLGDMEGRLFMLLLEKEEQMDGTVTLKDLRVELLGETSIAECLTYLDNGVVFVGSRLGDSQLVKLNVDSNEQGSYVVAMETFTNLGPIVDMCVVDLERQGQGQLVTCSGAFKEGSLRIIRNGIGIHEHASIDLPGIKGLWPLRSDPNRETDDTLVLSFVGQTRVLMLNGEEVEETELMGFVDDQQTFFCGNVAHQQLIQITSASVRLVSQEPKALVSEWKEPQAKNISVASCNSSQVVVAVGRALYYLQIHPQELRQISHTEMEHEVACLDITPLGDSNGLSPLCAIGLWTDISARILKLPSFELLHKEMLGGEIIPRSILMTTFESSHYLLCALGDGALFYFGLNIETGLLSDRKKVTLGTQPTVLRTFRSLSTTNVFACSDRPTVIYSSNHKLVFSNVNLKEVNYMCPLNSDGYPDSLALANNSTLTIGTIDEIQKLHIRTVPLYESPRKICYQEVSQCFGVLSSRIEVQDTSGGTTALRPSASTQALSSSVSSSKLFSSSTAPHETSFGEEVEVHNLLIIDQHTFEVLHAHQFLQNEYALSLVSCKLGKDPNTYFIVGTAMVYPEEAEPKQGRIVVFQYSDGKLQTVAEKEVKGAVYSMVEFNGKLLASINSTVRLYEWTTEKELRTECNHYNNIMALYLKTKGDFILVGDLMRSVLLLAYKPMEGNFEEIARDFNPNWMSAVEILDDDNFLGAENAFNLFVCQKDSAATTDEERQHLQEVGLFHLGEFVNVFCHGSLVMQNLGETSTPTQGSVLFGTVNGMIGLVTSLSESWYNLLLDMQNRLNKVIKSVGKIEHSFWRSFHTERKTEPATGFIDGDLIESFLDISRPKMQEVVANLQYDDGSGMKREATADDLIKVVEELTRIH
Chain of UniProt P49683 (whole entry, looked up): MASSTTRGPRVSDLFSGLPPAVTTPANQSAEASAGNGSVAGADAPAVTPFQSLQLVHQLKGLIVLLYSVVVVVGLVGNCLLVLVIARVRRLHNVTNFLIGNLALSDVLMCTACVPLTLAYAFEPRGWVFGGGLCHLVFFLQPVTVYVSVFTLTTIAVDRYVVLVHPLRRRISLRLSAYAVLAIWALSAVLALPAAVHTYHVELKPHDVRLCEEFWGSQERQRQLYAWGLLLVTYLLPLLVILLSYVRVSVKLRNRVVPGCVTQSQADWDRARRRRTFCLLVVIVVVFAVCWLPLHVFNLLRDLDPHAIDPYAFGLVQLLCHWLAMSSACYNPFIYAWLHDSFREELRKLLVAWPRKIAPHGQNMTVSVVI
Chain of UniProt Q9HCP0 (whole entry, looked up): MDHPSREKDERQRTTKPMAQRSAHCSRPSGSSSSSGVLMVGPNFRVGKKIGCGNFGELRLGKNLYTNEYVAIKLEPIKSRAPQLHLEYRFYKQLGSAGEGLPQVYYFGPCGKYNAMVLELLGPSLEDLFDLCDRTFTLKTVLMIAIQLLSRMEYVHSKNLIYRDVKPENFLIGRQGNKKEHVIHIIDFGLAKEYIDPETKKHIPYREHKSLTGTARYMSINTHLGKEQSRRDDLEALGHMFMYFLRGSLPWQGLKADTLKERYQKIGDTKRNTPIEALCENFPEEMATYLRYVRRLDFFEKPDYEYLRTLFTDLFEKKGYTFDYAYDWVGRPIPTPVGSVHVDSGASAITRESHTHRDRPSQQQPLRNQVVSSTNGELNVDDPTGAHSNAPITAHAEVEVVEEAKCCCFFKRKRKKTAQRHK
Chain of UniProt P41594 (whole entry, looked up): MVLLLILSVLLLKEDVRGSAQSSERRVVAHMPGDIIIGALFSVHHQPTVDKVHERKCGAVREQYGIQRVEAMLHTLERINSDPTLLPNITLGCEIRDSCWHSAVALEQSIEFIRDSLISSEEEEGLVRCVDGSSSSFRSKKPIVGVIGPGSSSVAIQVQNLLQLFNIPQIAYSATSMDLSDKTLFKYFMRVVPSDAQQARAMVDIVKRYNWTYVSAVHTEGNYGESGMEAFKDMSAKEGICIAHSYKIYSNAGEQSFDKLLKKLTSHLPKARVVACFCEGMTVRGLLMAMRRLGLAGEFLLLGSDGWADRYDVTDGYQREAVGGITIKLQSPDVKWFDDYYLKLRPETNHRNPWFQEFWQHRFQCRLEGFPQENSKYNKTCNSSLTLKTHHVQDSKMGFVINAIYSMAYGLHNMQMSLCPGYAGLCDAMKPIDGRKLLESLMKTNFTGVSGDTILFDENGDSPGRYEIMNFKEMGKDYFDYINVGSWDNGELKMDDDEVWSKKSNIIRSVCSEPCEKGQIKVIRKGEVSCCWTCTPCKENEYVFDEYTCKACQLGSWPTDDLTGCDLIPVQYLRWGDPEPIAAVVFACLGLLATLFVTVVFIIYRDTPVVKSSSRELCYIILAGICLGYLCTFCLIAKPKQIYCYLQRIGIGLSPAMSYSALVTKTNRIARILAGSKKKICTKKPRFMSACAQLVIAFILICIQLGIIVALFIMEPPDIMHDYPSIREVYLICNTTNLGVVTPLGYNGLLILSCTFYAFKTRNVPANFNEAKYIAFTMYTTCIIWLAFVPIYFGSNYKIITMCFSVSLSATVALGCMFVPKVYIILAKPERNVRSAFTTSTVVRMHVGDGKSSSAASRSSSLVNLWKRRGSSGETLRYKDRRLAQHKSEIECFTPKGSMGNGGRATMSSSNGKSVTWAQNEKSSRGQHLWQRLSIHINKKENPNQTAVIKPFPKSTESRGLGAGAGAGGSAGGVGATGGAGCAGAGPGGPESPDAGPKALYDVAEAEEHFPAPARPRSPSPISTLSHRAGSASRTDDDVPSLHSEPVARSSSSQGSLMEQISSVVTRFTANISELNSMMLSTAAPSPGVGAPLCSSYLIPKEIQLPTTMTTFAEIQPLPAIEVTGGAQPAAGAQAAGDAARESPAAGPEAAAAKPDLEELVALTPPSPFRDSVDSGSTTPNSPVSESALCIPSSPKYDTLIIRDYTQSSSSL
Chain of UniProt Q9BZJ7 (whole entry, looked up): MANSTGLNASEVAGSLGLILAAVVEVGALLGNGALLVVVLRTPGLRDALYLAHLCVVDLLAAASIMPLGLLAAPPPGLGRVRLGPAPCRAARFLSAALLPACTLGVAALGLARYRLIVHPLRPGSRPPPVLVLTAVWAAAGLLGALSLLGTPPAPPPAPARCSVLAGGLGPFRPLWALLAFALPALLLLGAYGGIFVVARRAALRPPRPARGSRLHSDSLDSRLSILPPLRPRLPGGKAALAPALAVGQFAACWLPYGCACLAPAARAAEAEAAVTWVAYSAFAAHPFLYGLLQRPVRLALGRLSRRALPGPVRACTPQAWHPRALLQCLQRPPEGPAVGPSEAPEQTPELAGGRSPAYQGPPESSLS
Chain of UniProt Q9NVV5 (whole entry, looked up): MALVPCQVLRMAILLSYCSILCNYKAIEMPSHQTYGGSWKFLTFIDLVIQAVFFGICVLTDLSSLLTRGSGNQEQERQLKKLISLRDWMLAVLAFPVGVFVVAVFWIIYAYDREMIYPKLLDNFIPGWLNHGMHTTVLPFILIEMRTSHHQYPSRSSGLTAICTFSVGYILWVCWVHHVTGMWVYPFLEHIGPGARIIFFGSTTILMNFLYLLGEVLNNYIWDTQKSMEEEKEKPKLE
Chain of UniProt Q8NET8 (whole entry, unmodified, looked up): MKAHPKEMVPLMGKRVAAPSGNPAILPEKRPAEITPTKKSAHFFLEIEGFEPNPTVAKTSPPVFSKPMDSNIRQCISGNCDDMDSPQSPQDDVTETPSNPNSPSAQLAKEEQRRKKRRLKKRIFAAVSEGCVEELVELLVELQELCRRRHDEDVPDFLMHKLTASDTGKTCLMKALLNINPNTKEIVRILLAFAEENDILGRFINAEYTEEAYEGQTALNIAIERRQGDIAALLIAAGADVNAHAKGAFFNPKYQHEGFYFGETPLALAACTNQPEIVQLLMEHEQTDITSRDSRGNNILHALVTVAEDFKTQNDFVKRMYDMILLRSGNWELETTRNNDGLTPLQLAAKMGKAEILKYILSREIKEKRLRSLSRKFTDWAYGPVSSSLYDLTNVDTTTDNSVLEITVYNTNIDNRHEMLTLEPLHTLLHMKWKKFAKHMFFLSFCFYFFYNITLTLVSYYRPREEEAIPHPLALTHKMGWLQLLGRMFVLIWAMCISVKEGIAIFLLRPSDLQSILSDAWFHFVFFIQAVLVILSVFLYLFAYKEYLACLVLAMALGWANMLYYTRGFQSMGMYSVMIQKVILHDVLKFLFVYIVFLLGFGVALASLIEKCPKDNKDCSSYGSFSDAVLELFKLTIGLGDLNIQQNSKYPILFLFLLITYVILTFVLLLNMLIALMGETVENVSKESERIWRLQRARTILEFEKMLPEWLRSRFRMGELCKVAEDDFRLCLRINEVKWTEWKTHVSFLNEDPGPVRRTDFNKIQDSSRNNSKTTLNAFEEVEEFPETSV
Chain of UniProt P25021 (whole entry, looked up): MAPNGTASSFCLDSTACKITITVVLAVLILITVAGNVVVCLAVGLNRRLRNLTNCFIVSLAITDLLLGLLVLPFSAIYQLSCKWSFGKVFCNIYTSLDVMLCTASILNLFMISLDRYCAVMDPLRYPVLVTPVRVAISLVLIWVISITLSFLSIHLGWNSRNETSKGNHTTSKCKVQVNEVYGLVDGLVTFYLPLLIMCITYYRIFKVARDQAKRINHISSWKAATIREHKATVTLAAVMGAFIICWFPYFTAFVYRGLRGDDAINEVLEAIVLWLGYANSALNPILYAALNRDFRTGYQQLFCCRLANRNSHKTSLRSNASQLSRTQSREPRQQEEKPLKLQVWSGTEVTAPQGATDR

O=S(=O)([O-])C(F)(F)C(F)(F)C(F)(F)C(F)(F)C(F)(F)C(F)(F)C(F)(F)C(F)(F)F.[K+]  mRNA level (RT-qPCR, item: Cyp4a10; pair-fed mice, liver; dose not given): increased
CO[C@H]1C[C@@H]2CC[C@@H](C)[C@@](O)(O2)C(=O)C(=O)N2CCCC[C@H]2C(=O)O[C@H]([C@H](C)C[C@@H]2CC[C@@H](OC(=O)NCCOCCOCCOCCOCCOCCOCCOCCOCCC(=O)N3CCc4cc(Cn5nc(-c6ccc7oc(N)nc7c6)c6c(N)ncnc65)ccc4C3)[C@H](OC)C2)C[C@@H](O)[C@H](C)/C=C(\C)[C@@H](O)[C@@H](OC)C(=O)[C@H](C)C[C@H](C)/C=C/C=C/C=C/1C  constipation incidence (patients with advanced solid tumours; intravenous, 8 mg weekly, any grade): 18.8%
CN1CCN(c2cc(-c3ccncc3)c(-c3ccc4ccccc4c3)nn2)CC1  activation (Histamine H2 receptor (HRH2, Homo sapiens, UniProt P25021); agonist, FLIPR; 12.5 µM): -1%
C[C@@H](O)[C@@H](CO)NC(=O)[C@@H](CCCNC(=N)N)NC(=O)[C@@H]1CCCN1C(=O)[C@@H]1CSSC[C@H](NC(=O)[C@H](Cc2ccccc2)NC(=O)CN2CCN(CC(=O)O)CCN(CC(=O)O)CCN(CC(=O)O)CC2)C(=O)N[C@@H](Cc2ccc(O)cc2)C(=O)N[C@@H](Cc2ccccc2)C(=O)N[C@@H](CCC(N)=O)C(=O)N[C@@H](CC(N)=O)C(=O)N1 [gallium-68 labelled]  tissue uptake (healthy Wistar rat, adrenals; intravenous, 8 MBq, 30 min, individual animals): 0.47 %ID/g
Oc1ccc2c3c1O[C@H]1[C@@H](O)CC[C@@]4(O)[C@@H](C2)N(CC2CCC2)CC[C@]314  log2 fold change (Prolactin-releasing peptide receptor (PRLHR, Homo sapiens, UniProt P49683); receptor activation, TANGO luminescence; concentration not given, unconfirmed screen; reference: vehicle control): 0.028
O=C(c1ccc(Cl)cc1)N1CCN2C(=O)N(OC(=O)N3CCOc4ccccc43)C(=O)C2C1 (stereo not shown)  median ratio (Androgen-induced gene 1 protein (Homo sapiens, UniProt Q9NVV5); enzyme activity, inhibitor, MS-based ABPP; SW-620 in situ; 10 µM, 2 h, 37 °C; reference: compound over DMSO, lower = stronger inhibition): 0.72
COc1cc(Nc2ncc(F)c(Nc3ccc4c(n3)NC(=O)C(C)(C)O4)n2)cc(OC)c1OC  IC50 (Metabotropic glutamate receptor 5 (GRM5, Homo sapiens, UniProt P41594); binding): > 10 µM
CCCc1cc(O)c2c(c1)OC(C)(C)[C@@H]1CCC(C)=C[C@@H]21  Hill coefficient (Transient receptor potential cation channel subfamily V member 3 (TRPV3, Homo sapiens, UniProt Q8NET8, L420A); calcium uptake, agonist; HEK293S; mutant L420A, site 3): 1.84 ± 0.17
CN1CC[C@@H](c2c(O)cc(O)c3c(=O)cc(-c4ccc(C(F)(F)F)cc4Cl)oc23)[C@@H]1CO  patients with adverse event (item: Hyperglycemia; relapsed AML; oral, 200 mg, grade 3-4, intermittent dosing): 0%
C[C@H]1CN(c2n[nH]c3nc(N[C@H]4CC[C@H](NS(=O)(=O)CCC(F)(F)F)CC4)ncc23)CCO1  relative abundance (DNA damage-binding protein 1 (DDB1, Homo sapiens, UniProt Q16531); inhibitor, Kinobeads competition profiling; 0.032 µM; reference: vehicle): 0.94
COc1ccc(N2C(=O)N(c3c(C)cccc3Cl)Cc3cnc(Nc4ccc(C5CCN(C)CC5)cc4OC)nc32)nc1  inhibition (Tyrosine-protein kinase SYK (SYK, Homo sapiens, UniProt P43405); kinase activity; 0.5 µM): -2.39%
CC[C@H](C)[C@H](NC(=O)[C@H](Cc1ccccc1)NC(=O)[C@H](CCC(=O)O)NC(=O)[C@H](CCCNC(=N)N)NC(=O)[C@H](C)NC(=O)[C@H](C)NC(=O)[C@H](CCC(N)=O)NC(=O)[C@H](CCC(=O)O)NC(=O)[C@H](CCC(=O)O)NC(=O)[C@H](CC(C)C)NC(=O)[C@H](Cc1ccc(O)cc1)NC(=O)[C@H](CO)NC(=O)[C@H](CO)NC(=O)[C@@H](NC(=O)[C@H](CC(=O)O)NC(=O)[C@H](CO)NC(=O)[C@@H](NC(=O)[C@H](Cc1ccccc1)NC(=O)[C@@H](NC(=O)CNC(=O)[C@H](CCC(=O)O)NC(=O)[C@H](C)NC(=O)CCc1c[nH]cn1)[C@@H](C)O)[C@@H](C)O)C(C)C)C(=O)N[C@@H](C)C(=O)N[C@@H](Cc1c[nH]c2ccccc12)C(=O)N[C@@H](CC(C)C)C(=O)N[C@H](C(=O)N[C@@H](CCCNC(=N)N)C(=O)NCC(=O)N[C@@H](CCCNC(=N)N)C(=O)N[C@@H](CCCCNC(=O)COCCOCCNC(=O)COCCOCCNC(=O)CC[C@H](NC(=O)CCCCCCCCCCCCCCCCC(=O)O)C(=O)O)C(=O)NCC(=O)NCC(=O)N[C@@H](CO)C(=O)N[C@@H](CCCCNc1c(NCCCCCN(O)C(=O)CCC(=O)NCCCCCN(O)C(=O)CCC(=O)NCCCCCN(O)C(C)=O)c(=O)c1=O)C(=O)O)C(C)C [zirconium-89 labelled]  tissue uptake (rat, brain; iv, 3 nmol/kg, 168 h, ex vivo): 0.01 %ID/g
COc1cc(N)c(Cl)cc1C(=O)NC1CN2CCC1CC2 (stereo not shown)  log2 fold change (G-protein coupled receptor 62 (GPR62, Homo sapiens, UniProt Q9BZJ7); β-arrestin recruitment, TANGO luminescence, item: GPR62; concentration not given; reference: basal luminescence): 0.172
C[C@]1(O)CC[C@H]2[C@@H]3CCC4=CC(=O)CCC4=C3C=C[C@@]21C  AR binding peaks (LNCaP; CUT&RUN; 5 nM, 16 h): 13300 peaks
COc1ccc2c(-c3nc(-c4c(C)[nH]c5ccc(OC)cc45)cs3)c[nH]c2c1  53BP1 binding at HPV ori (differentiated W12E; CUT&RUN-qPCR; concentration not given; reference: untreated): decreased
CNC1(c2ccccc2Cl)CCCCC1=O (racemic)  inhibition (5-hydroxytryptamine receptor 1A (HTR1A, Homo sapiens, UniProt P08908); radioligand binding, agonist, radioligand displacement; 30 µM): 2%
CC[C@H](C)[C@@H]1NC(=O)[C@@H]2CCCN2C(=O)[C@H](CC(C)C)NC(=O)[C@H](CC(C)C)NC(=O)CNC(=O)[C@@H](NC(=O)[C@@H](NC(=O)[C@H](CC(=O)O)NC(=O)CNC(=O)[C@@H](NC(=O)[C@H](C)NC(=O)CNC(=O)[C@H](CCCCN)NC(=O)[C@H](CC(C)C)NC(=O)[C@H](CC(C)C)NC(=O)[C@H](CCCCN)NC(=O)CNC(=O)[C@@H](NC(=O)[C@@H](N)CC(C)C)C(C)C)C(C)C)C(C)C)CSSC[C@@H](C(=O)O)NC1=O  log2 fold change (RNA-seq, item: Cebpe mRNA; mouse traumatic brain injury, frontal cortex and hippocampus; dose not given; reference: TBI plus compound vs TBI): -4.7
CC[C@H](C)[C@H](NC(=O)CNC(=O)[C@@H](N)CCCCN)C(=O)N[C@@H](CC(C)C)C(=O)N[C@@H](CCCCN)C(=O)N[C@@H](CCCNC(=N)N)C(=O)N[C@@H](CCC(=O)O)C(=O)N[C@@H](CCCCN)C(=O)N[C@@H](CCCNC(=N)N)C(=O)N[C@@H](CC(C)C)C(=O)N[C@@H](CCCNC(=N)N)C(=O)N[C@@H](CCCNC(=N)N)C(=O)N[C@@H](CCCCN)C(=O)N[C@@H](CC(N)=O)C(=O)N[C@H](C(=O)N[C@@H](Cc1c[nH]cn1)C(=O)N[C@@H](Cc1c[nH]c2ccccc12)C(=O)N1CCC[C@H]1C(=O)N[C@@H](CCC(=O)O)C(=O)N[C@@H](CCC(=O)O)C(=O)NCC(=O)N[C@@H](CCCCN)C(=O)N[C@@H](CC(C)C)C(=O)N[C@@H](CCCNC(=N)N)C(=O)N[C@@H](CCC(=O)O)C(=O)N[C@@H](Cc1ccc(O)cc1)C(=O)N[C@@H](Cc1ccccc1)C(=O)N[C@@H](Cc1ccc(O)cc1)C(=O)N[C@@H](Cc1ccccc1)C(=O)N[C@@H](CCC(=O)O)C(=O)N[C@@H](CC(C)C)C(=O)N[C@@H](CC(=O)O)C(=O)N[C@@H](CCC(=O)O)C(=O)N[C@@H](C)C(=O)N[C@@H](CCC(=O)O)C(=O)N[C@@H](CCCNC(=N)N)C(=O)N[C@H](C(=O)N[C@@H](CC(N)=O)C(=O)N[C@H](C(=O)O)C(C)C)C(C)C)C(C)C  log2 fold change (HeLa and HEK-293T cells; phosphatase bead binding, competitive inhibitor, PIB pulldown iBAQ LC-MS/MS, item: SIKE1; concentration not given; reference: untreated control): -0.12
[2H]c1c([2H])c([C@]2([2H])CCCN2C(=O)C(C)(C)Oc2ccc3cn[nH]c3c2)c([2H])c([2H])c1C([2H])([2H])[2H]  remaining binding (Casein kinase I isoform gamma-1 (CSNK1G1, Homo sapiens, UniProt Q9HCP0); KINOMEscan; 1 µM; reference: DMSO control): 55%

Some of these lines once more:
CNC1(c2ccccc2Cl)CCCCC1=O (racemic)  inhibition (5-hydroxytryptamine receptor 1A (HTR1A, Homo sapiens, UniProt P08908); radioligand binding, agonist, radioligand displacement; 30 µM): 2%
[2H]c1c([2H])c([C@]2([2H])CCCN2C(=O)C(C)(C)Oc2ccc3cn[nH]c3c2)c([2H])c([2H])c1C([2H])([2H])[2H]  remaining binding (Casein kinase I isoform gamma-1 (CSNK1G1, Homo sapiens, UniProt Q9HCP0); KINOMEscan; 1 µM; reference: DMSO control): 55%
CN1CC[C@@H](c2c(O)cc(O)c3c(=O)cc(-c4ccc(C(F)(F)F)cc4Cl)oc23)[C@@H]1CO  patients with adverse event (item: Hyperglycemia; relapsed AML; oral, 200 mg, grade 3-4, intermittent dosing): 0%
